Results from different studies.
Each line is one published result; not all experiments were run side by side. Values joined by “and” are separate records of one study, mostly repeats; a detail may differ. ± gives the spread as reported. Values after ≈ are worked out from the molar mass of the structure shown.
KDM1A: Lysine-specific histone demethylase 1A (KDM1A, Homo sapiens, UniProt O60341)
Rhomboid protease AarA: Rhomboid protease AarA (Providencia stuartii, UniProt P46116)
Chain of UniProt P46116 (whole entry, looked up): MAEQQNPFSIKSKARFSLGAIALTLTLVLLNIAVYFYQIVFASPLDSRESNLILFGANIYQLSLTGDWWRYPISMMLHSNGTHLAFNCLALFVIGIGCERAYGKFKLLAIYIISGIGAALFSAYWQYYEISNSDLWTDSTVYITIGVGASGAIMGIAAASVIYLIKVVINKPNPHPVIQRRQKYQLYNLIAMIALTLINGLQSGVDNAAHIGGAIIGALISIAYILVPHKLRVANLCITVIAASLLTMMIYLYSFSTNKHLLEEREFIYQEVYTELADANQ
IL1RL2: Interleukin-1 receptor-like 2 (IL1RL2, Homo sapiens, UniProt Q9HB29)
Chain of UniProt Q9HB29 (whole entry, looked up): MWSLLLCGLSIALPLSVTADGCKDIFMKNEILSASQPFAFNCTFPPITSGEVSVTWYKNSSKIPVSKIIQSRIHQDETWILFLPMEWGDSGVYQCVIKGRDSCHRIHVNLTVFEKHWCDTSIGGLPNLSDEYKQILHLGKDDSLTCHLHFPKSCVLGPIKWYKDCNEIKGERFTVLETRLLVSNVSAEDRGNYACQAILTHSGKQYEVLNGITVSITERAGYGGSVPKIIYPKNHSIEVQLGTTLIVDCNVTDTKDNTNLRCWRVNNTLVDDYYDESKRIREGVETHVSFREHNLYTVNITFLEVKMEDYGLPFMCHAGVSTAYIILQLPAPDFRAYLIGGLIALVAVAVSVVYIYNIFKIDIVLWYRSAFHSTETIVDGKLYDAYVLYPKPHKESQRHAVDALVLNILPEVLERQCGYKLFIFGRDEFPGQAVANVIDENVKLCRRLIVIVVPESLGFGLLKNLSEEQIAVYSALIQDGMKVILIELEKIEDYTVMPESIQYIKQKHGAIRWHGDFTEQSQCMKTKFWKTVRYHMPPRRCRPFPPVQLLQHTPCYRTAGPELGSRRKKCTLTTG
Chain of UniProt P19447 (whole entry, looked up): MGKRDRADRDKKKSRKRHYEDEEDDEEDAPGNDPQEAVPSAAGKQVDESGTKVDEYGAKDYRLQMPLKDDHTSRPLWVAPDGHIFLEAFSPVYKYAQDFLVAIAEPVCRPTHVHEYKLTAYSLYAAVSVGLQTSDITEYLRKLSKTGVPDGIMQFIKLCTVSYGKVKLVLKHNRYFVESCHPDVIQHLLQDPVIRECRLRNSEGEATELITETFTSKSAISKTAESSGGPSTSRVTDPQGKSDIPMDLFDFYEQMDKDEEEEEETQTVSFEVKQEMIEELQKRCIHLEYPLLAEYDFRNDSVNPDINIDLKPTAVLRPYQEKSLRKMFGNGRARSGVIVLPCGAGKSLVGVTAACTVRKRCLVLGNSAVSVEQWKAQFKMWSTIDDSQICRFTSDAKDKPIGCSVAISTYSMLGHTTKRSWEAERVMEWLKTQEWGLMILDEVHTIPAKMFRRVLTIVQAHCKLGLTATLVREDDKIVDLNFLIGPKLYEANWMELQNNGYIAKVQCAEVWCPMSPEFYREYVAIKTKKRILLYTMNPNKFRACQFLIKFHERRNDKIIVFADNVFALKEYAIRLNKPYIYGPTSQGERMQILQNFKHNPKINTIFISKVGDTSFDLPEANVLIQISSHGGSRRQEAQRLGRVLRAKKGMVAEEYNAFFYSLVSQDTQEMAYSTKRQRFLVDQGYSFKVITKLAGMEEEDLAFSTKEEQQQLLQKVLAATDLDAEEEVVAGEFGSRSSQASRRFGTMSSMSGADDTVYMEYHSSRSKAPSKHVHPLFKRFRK
Chain of UniProt P07711 (whole entry, looked up): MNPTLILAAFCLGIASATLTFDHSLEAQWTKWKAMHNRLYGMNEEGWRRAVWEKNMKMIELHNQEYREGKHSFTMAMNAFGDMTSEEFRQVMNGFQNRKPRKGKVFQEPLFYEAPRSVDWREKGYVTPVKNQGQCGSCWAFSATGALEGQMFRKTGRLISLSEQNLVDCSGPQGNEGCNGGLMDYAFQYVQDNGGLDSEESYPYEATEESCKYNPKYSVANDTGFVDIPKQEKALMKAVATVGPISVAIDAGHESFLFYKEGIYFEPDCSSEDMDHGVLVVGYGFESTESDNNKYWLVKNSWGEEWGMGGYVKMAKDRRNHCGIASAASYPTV
Chain of UniProt P45983 (whole entry, looked up): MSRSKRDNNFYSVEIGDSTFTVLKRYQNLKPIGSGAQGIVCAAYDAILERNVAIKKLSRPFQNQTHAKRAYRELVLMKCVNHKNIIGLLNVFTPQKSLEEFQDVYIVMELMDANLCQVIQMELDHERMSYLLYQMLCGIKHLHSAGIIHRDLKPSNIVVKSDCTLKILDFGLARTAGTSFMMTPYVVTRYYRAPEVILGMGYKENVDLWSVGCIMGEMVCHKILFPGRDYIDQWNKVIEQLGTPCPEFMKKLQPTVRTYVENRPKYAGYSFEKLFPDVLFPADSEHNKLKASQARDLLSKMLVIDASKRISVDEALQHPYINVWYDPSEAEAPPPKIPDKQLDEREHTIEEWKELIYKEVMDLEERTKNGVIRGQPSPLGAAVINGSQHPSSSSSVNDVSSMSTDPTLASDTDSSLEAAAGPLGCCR
Chain of UniProt O75417 (whole entry, looked up): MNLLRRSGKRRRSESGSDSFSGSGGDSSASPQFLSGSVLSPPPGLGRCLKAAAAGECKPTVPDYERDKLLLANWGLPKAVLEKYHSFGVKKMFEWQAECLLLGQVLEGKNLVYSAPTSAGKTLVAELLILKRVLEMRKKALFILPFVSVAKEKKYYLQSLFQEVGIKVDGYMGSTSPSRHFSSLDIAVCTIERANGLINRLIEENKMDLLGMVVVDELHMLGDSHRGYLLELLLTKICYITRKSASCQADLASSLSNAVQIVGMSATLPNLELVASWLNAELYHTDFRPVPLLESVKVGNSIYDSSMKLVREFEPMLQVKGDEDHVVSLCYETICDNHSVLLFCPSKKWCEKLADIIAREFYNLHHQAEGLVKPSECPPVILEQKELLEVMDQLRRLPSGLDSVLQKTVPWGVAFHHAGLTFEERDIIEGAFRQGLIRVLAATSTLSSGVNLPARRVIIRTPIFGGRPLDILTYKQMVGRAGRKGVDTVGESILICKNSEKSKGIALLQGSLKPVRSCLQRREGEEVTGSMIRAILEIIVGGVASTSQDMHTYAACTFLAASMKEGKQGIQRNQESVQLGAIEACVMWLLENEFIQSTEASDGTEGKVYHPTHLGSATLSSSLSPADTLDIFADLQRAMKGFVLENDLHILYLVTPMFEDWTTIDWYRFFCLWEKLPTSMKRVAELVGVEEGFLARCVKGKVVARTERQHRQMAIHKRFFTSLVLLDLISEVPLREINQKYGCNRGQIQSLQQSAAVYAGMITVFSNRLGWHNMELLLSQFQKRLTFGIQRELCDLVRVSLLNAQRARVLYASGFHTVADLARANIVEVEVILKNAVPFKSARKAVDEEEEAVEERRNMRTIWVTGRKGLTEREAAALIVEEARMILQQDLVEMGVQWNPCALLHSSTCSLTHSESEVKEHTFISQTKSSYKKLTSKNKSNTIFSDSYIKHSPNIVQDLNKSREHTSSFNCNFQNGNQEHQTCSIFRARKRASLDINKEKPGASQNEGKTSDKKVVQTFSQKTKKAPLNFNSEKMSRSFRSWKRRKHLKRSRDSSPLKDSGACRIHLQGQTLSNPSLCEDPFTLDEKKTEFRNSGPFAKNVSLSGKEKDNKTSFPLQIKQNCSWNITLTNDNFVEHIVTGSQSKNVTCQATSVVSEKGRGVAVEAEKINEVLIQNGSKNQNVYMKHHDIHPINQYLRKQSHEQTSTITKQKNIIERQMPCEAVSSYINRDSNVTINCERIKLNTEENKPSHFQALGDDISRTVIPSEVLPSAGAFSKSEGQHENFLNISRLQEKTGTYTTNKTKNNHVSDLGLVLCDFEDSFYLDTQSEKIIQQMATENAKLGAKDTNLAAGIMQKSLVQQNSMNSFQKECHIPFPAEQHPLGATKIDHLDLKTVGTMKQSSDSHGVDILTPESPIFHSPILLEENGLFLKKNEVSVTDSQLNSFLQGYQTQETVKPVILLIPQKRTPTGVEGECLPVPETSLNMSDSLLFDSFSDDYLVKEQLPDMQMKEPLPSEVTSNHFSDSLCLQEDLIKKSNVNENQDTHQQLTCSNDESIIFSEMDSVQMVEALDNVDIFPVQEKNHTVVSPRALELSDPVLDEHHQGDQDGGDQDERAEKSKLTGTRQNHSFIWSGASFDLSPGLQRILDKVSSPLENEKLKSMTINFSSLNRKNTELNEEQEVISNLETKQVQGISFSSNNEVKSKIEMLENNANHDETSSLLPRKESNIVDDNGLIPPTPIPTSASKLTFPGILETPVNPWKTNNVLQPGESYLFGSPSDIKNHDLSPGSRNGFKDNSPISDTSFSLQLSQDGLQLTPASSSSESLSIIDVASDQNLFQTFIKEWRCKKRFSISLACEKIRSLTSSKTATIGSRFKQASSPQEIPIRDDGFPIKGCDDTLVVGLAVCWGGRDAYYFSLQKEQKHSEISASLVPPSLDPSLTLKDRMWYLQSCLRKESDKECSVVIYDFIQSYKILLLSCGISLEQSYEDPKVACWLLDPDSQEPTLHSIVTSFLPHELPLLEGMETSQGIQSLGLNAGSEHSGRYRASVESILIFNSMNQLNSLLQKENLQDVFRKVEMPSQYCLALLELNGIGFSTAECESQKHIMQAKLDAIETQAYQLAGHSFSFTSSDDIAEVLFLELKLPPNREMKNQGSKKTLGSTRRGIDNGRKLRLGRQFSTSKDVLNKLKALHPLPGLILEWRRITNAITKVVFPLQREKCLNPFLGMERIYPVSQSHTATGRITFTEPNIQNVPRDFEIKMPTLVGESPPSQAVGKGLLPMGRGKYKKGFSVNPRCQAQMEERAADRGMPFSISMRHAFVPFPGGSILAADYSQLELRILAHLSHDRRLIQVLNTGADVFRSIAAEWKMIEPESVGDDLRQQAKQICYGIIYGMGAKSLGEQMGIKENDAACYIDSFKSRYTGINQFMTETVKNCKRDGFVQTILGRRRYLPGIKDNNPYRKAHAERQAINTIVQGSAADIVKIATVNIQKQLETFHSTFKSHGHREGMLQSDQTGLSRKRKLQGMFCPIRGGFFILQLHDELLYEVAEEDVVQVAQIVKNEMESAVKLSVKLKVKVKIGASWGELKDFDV

Compound = C=C(NC(=O)c1csc(-c2nc3c(cc2O)-c2nc(cs2)C(=O)NC(C(C)O)C(=O)NC(=C(C)OC)c2nc(cs2)C(=O)NC2c4nc(cs4)C(=O)NC(COC(=O)c4c5c6c(cccc6n4O)COC(=O)C(OC4CC(C)(O)C(N(C)C)C(C)O4)C2OC5)c2nc-3cs2)n1)C(N)=O (stereo not drawn); target or system = Streptococcus pneumoniae; assay = microbial growth; conditions = clinical isolate; endpoint = MIC90; value = 7.8 ng/mL (≈ 5.43 nM)
Compound = CN(C)S(=O)(=O)c1ccc(S(=O)(=O)N2CCC(n3c(=O)[nH]c4ccccc43)CC2)cc1; target or system = General transcription and DNA repair factor IIH helicase/translocase subunit XPB (Homo sapiens, UniProt P19447); assay = ATPase activity, BIOMOL Green; conditions = concentration not given; endpoint = remaining activity; value = 94.5% and 97.1%
Compound = Cc1c(Cc2cc(Cl)cc(O[C@H](C)C(=O)O)c2)c2ccc(C(=O)N[C@@H](C)c3ccc(C(C)(C)C)cc3)cc2n1CC1CCC1; target or system = Peroxisome proliferator-activated receptor gamma, ligand-binding domain (PPARG, Homo sapiens, UniProt P37231); assay = reporter gene, luciferase reporter; test system = HEK293T, Gal4-PPARγ LBD; endpoint = IC50; value = 940 nM
Compound = Nc1ncc(-c2cc(-c3cnn(CC(F)(F)F)c3)ncc2F)nc1C(=O)NC1CNCC(F)C1 (stereo not drawn); target or system = EGFR; assay = KINOMEscan; conditions = 1 µM; how to read = relative to: DMSO control; endpoint = remaining binding; value = 91%
Compound = COc1cc(O)ccc1CCC(c1ccc(O)cc1)c1cc2c(c(C)c1O)OC(c1ccc(O)cc1)CC2 (mixture of isomers); test system = human blood; conditions = 3 µM, with: A23187; endpoint = 4-HDHA level; value = 49 ± 26 pg/mL
Compound = COc1ccccc1-c1ccncc1C(=O)Nc1ccc(OCc2ccc(Cl)cc2)nn1; target or system = DNA polymerase theta, helicase domain (POLQ, Homo sapiens, UniProt O75417); assay = ATPase activity, ADP-Glo; conditions = 0.95 µM; how to read = relative to: 0 µM cpd; endpoint = remaining activity; value = 93%
Compound = CN(C)C(=O)c1cccc([C@@H]2C[C@H]2NC2CCC2)c1; target or system = KDM1A; assay = demethylase activity, inhibitor; conditions = 0.2058 µM, with: H3K4me2 peptide; endpoint = remaining activity; value = 92.9%
Compound = CC(C)C[C@@H](NC(=O)[C@@H](CC(C)C)NC(=O)[C@@H](CC(=O)O)NC(=O)[C@@H](CC(C)C)NC(=O)[C@@H](CC(C)C)NC(=O)[C@@H](CC(C)C)NC(=O)[C@H](NC(=O)[C@@H](CC(=O)O)NC(=O)[C@H](NC(=O)[C@H]1CCCN1C(=O)[C@@H](Cc1ccccc1)NC(=O)[C@@H](CC(C)C)NC(=O)[C@@H](CC(C)C)NC(=O)[C@@H](CC(=O)O)NC(=O)[C@@H](CC(C)C)NC(=O)[C@@H](Cc1ccc(O)cc1)NC(=O)[C@@H](C)NC(=O)[C@@H](CCCNC(=N)N)NC(=O)[C@@H](Cc1c[nH]c2ccccc12)NC(=O)[C@H]1CCCN1C(=O)[C@@H](CC(N)=O)NC(=O)[C@@H](CCC(N)=O)NC(=O)[C@@H](CC(=O)O)NC(=O)[C@@H](CC(=O)O)NC(=O)[C@@H](CSC1CC(=O)N(CCNC(=O)CN2CCN(CC(=O)O)CCN(CC(=O)O)CC2)C1=O)NC(=O)[C@@H](C)N)[C@H](C)O)[C@H](C)O)C(=O)N[C@H](Cc1c[nH]c2ccccc12)C(=O)O (stereo partly drawn) [fluorine-18 labelled]; test system = male nude mice, LNCaP xenograft, tumor; conditions = intravenous, 1 h; endpoint = tissue uptake; value = 3.04 %ID/g
Compound = CNC(=O)c1cccc([C@@H]2C[C@H]2NC2CCC2)c1 (racemic); target or system = KDM1A; assay = demethylase activity, inhibitor; conditions = 0.2058 µM, with: H3K4me2 peptide; endpoint = remaining activity; value = 94.8%
Compound = CC(C)(C)c1ccc(C2CC(=O)N2S(=O)(=O)c2cccc(Cl)c2)cc1 (stereo not drawn); target or system = Rhomboid protease AarA; assay = substrate cleavage, gel-based; conditions = 100 µM; how to read = relative to: DMSO; endpoint = remaining activity; value = 94%
Compound = N#Cc1cnc2sc(C(=O)O)cc2c1N1CCc2[nH]nc(C(=O)N[C@@H](CC(=O)NCCOCCN3CCOCC3)c3cccc(Br)c3)c2C1; target or system = IL1RL2; assay = reporter gene (SEAP), inhibitor, HEK-Blue IL-36R reporter; test system = HEK-Blue IL-36R cells; conditions = 3.7 µM, 6 h, with: IL36A 0.01 ng/mL; endpoint = remaining activity; value = 39.5%
Compound = COC(=O)c1cc2cc3c(cc2oc1=O)N(CC(=O)NC(Cc1ccc(C)cc1)C(=O)NCC=CS(=O)(=O)c1ccccc1)CCC3 (stereo not drawn); target or system = Procathepsin L (CTSL, Homo sapiens, UniProt P07711); assay = inhibitor; conditions = 5 µM, 60 min, with: Z-Phe-Arg-pNA; how to read = relative to: uninhibited control; endpoint = remaining activity; value = 6%
Compound = CCC(NC(=O)c1cccc(-c2ccc(C)nc2N)c1)c1ccnn1C (stereo not drawn); target or system = ung (Escherichia coli, UniProt P12295); assay = enzyme activity, inhibitor; conditions = concentration not given, counter-screen; endpoint = remaining activity; value = 103 ± 3%
Compound = Cc1cnc(NC(=O)c2cccc([C@@H]3C[C@H]3NC3CCC3)c2)s1; target or system = KDM1A; assay = demethylase activity, inhibitor, Amplex Red; conditions = 0.0009145 µM, with: H3K4me2 peptide; how to read = relative to: vehicle; endpoint = remaining activity; value = 112%
Compound = CC(C)[C@@H]1NC(=O)[C@H](Cc2ccccc2)NC(=O)CSC[C@@H](C(N)=O)NC(=O)[C@H](CCC(=O)O)NC(=O)[C@H](CO)NC(=O)[C@H](Cc2c[nH]c3cccc(Cl)c23)NC(=O)[C@H](C2CCCCC2)NC(=O)[C@H](C(C)C)NC(=O)[C@H](Cc2ccc(O)cc2)NC(=O)[C@H](CC(=O)O)NC(=O)[C@H](Cc2c[nH]c3ccccc23)NC(=O)[C@H](Cc2ccc(N)nc2)NC(=O)[C@H](Cc2c[nH]c3ccc(Cl)cc23)NC(=O)[C@H](CCC(=O)O)NC1=O; target or system = IL1RL2; assay = reporter gene (SEAP), inhibitor, HEK-Blue IL-36R reporter; test system = HEK-Blue IL-36R cells; conditions = 3.7 µM, 6 h, with: IL-36γ 100 ng/mL; endpoint = remaining activity; value = 106%
Compound = Cn1cc(-c2ccc3ccccc3c2)c2ccc(Cl)nc21; target or system = Gag-Pol polyprotein, integrase (gag-pol, Human immunodeficiency virus type 1 group M subtype B, UniProt P04585); assay = strand transfer; test system = HIV-1; conditions = 10 µM; endpoint = remaining activity; value = 44.2%
Compound = COC(=O)[C@]1(C(C)C)C=C(C(=O)Nc2cccc(C(=O)Nc3ccc(Nc4nccc(-c5cccnc5)n4)c(C)c3)c2)C(=O)CC1; target or system = MAPK8 (Homo sapiens, UniProt P45983); assay = kinase activity, inhibitor; conditions = 133.3 µM, unit not given, with: 10 mM glutathione; how to read = relative to: no inhibitor; endpoint = remaining activity; value = 0.0759
Compound = Cc1ccc(S(=O)(=O)N2C(=O)C[C@H]2C(=O)OCc2ccccc2)cc1; target or system = Rhomboid protease AarA; assay = enzyme activity, inhibitor; conditions = 100 µM; endpoint = remaining activity; value = 84%
Compound = C=CC(=O)Nc1cccc(Cn2ncc3cnc(Nc4cnn(CCOC)c4)nc32)c1; target or system = EPHA7 human; assay = binding, KINOMEscan; conditions = 100 nM; how to read = lower = stronger binding; endpoint = percent of control; value = 100%
Compound = Cc1nnc(NC(=O)c2ccc([C@@H]3C[C@H]3NC3CCC3)cc2)s1 (racemic); target or system = KDM1A; assay = demethylase activity, inhibitor; conditions = 0.02286 µM, with: H3K4me2 peptide; endpoint = remaining activity; value = 102%
Compound = COC1CN([C@H]2CC[C@H]([C@@]3(C)Oc4c(Cl)cc(C(=O)NCc5c(SC)cc(C)[nH]c5=O)c(C)c4O3)CC2)C1; assay = RNA-seq, item: SDC2; test system = human, whole blood; conditions = dose not given, 24 h; how to read = relative to: pretreatment baseline; endpoint = log2 fold change; value = 5.93
